Results from different studies.
A part holds a random share of what one study measured. Values joined by “and” are separate records of one study, mostly repeats; a detail may differ.

Series 1
SMILES: Cc1nc(C)c(C=[N+]([O-])C(C)(C)C)nc1C
Method: footprint test
Species: MPTP-induced Parkinson's disease mouse model
setting	corridor crossing time
10 mg/kg, trial 3	7.31 s and 7.79 s and 6.22 s and 4.19 s and 4.64 s and 8.09 s and 5.88 s
10 mg/kg	8.42 s and 4.98 s and 6.37 s and 6.06 s and 5.52 s and 6.07 s and 6.83 s
30 mg/kg, trial 3	5.28 s and 5.67 s and 7.53 s and 4.29 s and 5.3 s and 5.08 s and 5.91 s and 6.18 s
10 mg/kg, trial 1	5.12 s and 8.22 s and 6.13 s and 4.85 s and 5.71 s and 6.35 s and 8.95 s
90 mg/kg	6.19 s and 7.14 s and 4.73 s and 5.23 s and 5.31 s and 5.49 s and 5.16 s and 5.55 s

Series 2
Structure (SMILES): CCN1/C(=C/C=C2\CCCC(/C=C/C3=[N+](CC)c4ccccc4C3(C)C)=C2NCCCCCCCCN2CCC(Nc3nc4ccccc4n3Cc3ccc(F)cc3)CC2)C(C)(C)c2ccccc21
Cell line: U-87 MG
Tested at: concentration not given
Baseline: DMSO
test	log2 fold change
measured: SCN1B mRNA	-1.88
measured: TRAM1L1 mRNA	-1.65
measured: PRR9 mRNA	4.25
measured: HOXD4 mRNA	-0.958
measured: PPP4R4 mRNA	1.25
measured: CAMK2N1 mRNA	-0.833
measured: PPP1R14C mRNA	1.47
measured: PITPNM2 mRNA	-1.04
measured: CCN5 mRNA	-3.84
measured: DTX3L mRNA	-0.863
measured: SEC11C mRNA	1.08
measured: MATN3 mRNA	-1.36
measured: MATN2 mRNA	-2.14
measured: ZXDA mRNA	1
measured: DSN1 mRNA	-1.21
measured: PLPP5 mRNA	0.986

Series 3
Compound: COCCCCCCC1CC2C(CCC3(C)C(O)CCC23)c2ccc(O)cc21 (centres unmarked)
Method: microarray
Baseline: untreated
cell line	test	setting	log2 fold change
SK-OV-3	measured: CCL8	10 µM	5.77
PANC-1	measured: CCL11	50 µM	0
PANC-1	measured: CCL11	10 µM	0
A549	measured: ADAMTS8	10 µM	-0.168
SK-OV-3	measured: ADAMTS14	10 µM	0.408
PANC-1	measured: GZMK	50 µM	3.38
PANC-1	measured: ADAMTS8	50 µM	-1.12
A549	measured: ADAMTS8	50 µM	-1.54
A549	measured: CCL8	10 µM	5.27
SK-OV-3	measured: ISG20L1	50 µM	1.39

Series 4
SMILES: Cc1ncsc1-c1ccc(C(CO)NC(=O)C2CC(O)CN2C(=O)C(C(C)C)n2cc(-c3ccc(COc4c(-c5c(C)c(F)cc6[nH]ncc56)c(C5CC5)cc5c(N6CC7CC6CN7)nc(OC6CCOCC6)nc45)cc3)nn2)cc1 (centres unmarked)
Read-out: cell growth or viability
Method: ATP luminescence
Time: 6 days
cell line	setting	viability
HPAC	10 nM	72.7% and 76.8% and 75.7% and 82.6%
SW-403	3 nM	83.1% and 109% and 97.6% and 92.1%
GP5d	10 µM	33.3% and 30.4% and 35.5% and 29.7%
A-375	30 nM	84% and 88.1% and 99.8% and 80.2%
GP5d	3 nM	76.3% and 80.6% and 72.8% and 77.8%
SK-CO-1	0.3 µM	29.2% and 27.8% and 27.3% and 24.5%
PSN1	0.3 µM	95.8% and 79.4% and 107% and 91.5%
PK-59	10 nM	56.6% and 70.9% and 60.4% and 73.2%
SW-403	0.3 µM	39.2% and 50.4% and 46.1% and 39.8%
HCT-116	1 µM	13.2% and 10% and 11.9% and 12.5%

Excerpt of the above (series 2):
test	log2 fold change
measured: MATN3 mRNA	-1.36
measured: TRAM1L1 mRNA	-1.65
measured: PLPP5 mRNA	0.986
measured: CAMK2N1 mRNA	-0.833
measured: SCN1B mRNA	-1.88
measured: MATN2 mRNA	-2.14
